Experimental data from different studies.
Every numbered part comes from another study and shows a few of its results, in no order.

Block 1
Target: Histone acetyltransferase KAT6A, winged helix 1, GST fusion (KAT6A, Homo sapiens, UniProt Q92794, residues 1-85)
Method: protein binding microarray
Molecule type: double-stranded DNA, one strand shown
Sample: in vitro
Tested at: not given
Setting: 8-mer, flanks averaged, mean of 2 arrays, mostly near background
Reference: not given
Direction: higher = stronger binding
Construct (chain): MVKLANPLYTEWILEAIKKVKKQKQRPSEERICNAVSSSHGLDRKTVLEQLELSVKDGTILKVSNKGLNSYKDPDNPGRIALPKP
Oligonucleotide | E-score
ATCTTAAC | -0.0759
ACGTTCAG | -0.144
GTAGTCTA | -0.0825
AATCTGCG | 0.111
ATGGGCAA | -0.258
TATATCAA | -0.0931
ACCTACGC | 0.169
AGGCTGAT | -0.182
CACTAATA | -0.125
GAAACTAC | -0.0424
AAGACTAG | -0.0881
ATTACCTA | -0.0715
AGATTTAG | -0.245
ACGGTTTC | 0.149
GTGGTGAA | -0.0996
CTATCACC | 0.00766
CTAGGCAA | -0.185
GCTCTAAC | 0.178
GACTGTAC | -0.0484
GGGTAACA | -0.0389
ATGACAAT | -0.243

Block 2
Target: Ras GTPase-activating protein-binding protein 1, RRM domain (G3BP1, Homo sapiens, UniProt Q13283)
Chain of UniProt Q13283 (whole entry, looked up): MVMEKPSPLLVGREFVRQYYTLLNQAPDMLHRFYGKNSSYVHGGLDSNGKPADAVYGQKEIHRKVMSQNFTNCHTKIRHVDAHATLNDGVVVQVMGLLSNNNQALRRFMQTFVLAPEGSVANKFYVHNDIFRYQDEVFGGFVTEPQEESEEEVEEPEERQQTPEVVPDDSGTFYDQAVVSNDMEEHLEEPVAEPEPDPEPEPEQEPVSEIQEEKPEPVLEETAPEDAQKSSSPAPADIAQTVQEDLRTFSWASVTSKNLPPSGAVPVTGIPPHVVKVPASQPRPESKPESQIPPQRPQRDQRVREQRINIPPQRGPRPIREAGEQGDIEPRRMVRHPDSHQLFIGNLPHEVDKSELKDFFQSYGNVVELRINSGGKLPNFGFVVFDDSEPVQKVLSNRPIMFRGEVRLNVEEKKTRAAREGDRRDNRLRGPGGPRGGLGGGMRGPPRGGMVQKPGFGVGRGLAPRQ
Method: RNA Bind-n-Seq
Molecule type: RNA
Sample: in vitro
Tested at: 1 µM
Setting: whole 134-nt RNA, ends assumed
Added: 150 mM KCl
Reference: input library
Direction: higher = stronger binding
Oligonucleotide | log2 enrichment
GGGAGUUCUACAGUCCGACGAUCUUGUUUUUUUUUUGUUCUUUUUUUCCAUGUCACUAAAGGCCCUCGGGACCAAGGAUCACGUCAUGACUCCGGUGAGUUCACACGUGGUGGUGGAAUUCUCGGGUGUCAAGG | -1.28
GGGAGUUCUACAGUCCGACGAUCCUGUGCUACACAUCGUAUGUACCGAAUCGGGGUUUUUUUGGGUUUUUUUGGGUUUUUUUGGAAAGUAUUAUGUUACGCCGUUCGGAUCUGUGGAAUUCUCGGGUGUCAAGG | -0.167
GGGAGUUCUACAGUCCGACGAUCAAAUAUCAGUGAUCAUCGCAAGGAAGGAGGCAGACAAGAGUAAGGCACACCUGACUCUUAGGACUAGCAGUCAGAACCAGGAGGAAAGGUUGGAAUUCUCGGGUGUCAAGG | -0.173
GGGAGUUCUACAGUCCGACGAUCGCAGGAAGUAAAAACAAAUGGAAAUGCUUCGGAUAGUGGCAGGGGUGGGGGUUGCUAAGGAAAGGGAGGGAUGGGAGUGGGUAAAGAGUUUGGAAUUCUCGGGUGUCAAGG | 1.15
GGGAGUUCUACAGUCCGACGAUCCACAGACAACACGCACCCACACAGACACAGAGGGAAGGGGUUGGGAUGGGGACAUGGUGCACAGCAGGGCGGGGUAGGACCCCAGCCCCUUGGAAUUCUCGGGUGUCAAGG | 0.101
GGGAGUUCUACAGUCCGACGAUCCUCAAGUCCUGUGCUACACAUCGUAUGUACCGAAUCGGGUUGGGGUUGGUUGGGAAAGUAUUAUGUUACGCCGUUCGGAUCUGCACUUCCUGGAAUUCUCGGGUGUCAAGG | -0.0178
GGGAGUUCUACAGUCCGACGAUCUCCUCAAGUCCUGUGCUACACAUCGUAUGUACCGAAUCGGAGGUUUGGAGGAAAGUAUUAUGUUACGCCGUUCGGAUCUGCACUUCCAGCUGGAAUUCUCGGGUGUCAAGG | -0.275
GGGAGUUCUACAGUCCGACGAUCCACAGACAACACGCACCCACACAGACACAGAGGGAAGGGGUUGGGAUGGUGACAGGGUGCACAGCAGGGCGGGGUAGGACCCCAGCCCCUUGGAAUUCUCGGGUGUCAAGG | -0.107
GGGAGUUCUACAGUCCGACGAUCAUUCUUCAUUGAGGGUGAGGAUCUCCCAAUGGGAGACUGCUCUGAAAAGAGCAUGUGCUUUUUGAAUUAGAUAACCUACUAUAAUCAUGGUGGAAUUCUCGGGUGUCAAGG | -0.0679

Block 3
Target: RNA binding protein fox-1 homolog 2, RRM domain, GST-SBP tag (RBFOX2, Homo sapiens, UniProt O43251-10, residues 100-194)
Method: RNA Bind-n-Seq
Molecule type: RNA
Sample: in vitro
Tested at: 365 nM
Setting: natural RNA segment, single round, ends assumed
Reference: no-protein control
Direction: higher = stronger binding
Residues (chain): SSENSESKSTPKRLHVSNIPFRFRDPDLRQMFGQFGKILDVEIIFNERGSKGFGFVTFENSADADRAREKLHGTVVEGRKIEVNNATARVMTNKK
Oligonucleotide | RBNS enrichment (R)
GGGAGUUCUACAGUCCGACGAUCAAGUUCUAGAUCUUACUUGGUUUCUUCUAGAAUCAGUCUUCAGGAAUGGAUUUUGUCACAAAUGGGGCAUGGGGGCUUUCUGAGGAAAUAACUACAAGUCUUGGUGGUGGUGGAAUUCUCGGGUGCCAA | 1.04
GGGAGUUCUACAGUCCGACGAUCAUAACCCCUGGGUCCAUCUGGCCAUCAGCCUCAGCAGUGAGCAAAGCAAUACCAUACUCAUUUCUAUGUUCCUGUUCCUUCCUCUGCUCCUCCUUUGGAGAAGCAAUAAUUGGAAUUCUCGGGUGCCAA | 0.262
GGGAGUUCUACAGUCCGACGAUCUUAACAGACUUGCUGUGUAGCAGUUUUUUUCUGGUGGAGUUGCUGUAAGUCUUGUAAGUCUAAUGUGGCUAUCCUACUCUUUUGGGCAAUGCAUGUAUUAUGCAUUGGAAUGGAAUUCUCGGGUGCCAA | 0.499
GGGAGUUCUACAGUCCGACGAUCUCUGGGCUGUGAAGGCAGUUGCCACUGUUAUGCAGUGGCUGCUUUUGAGGGACGCACUGUGAAGAAUGAGAAGGGAAAAGCAAGAUUAUCCUUGUGAAAUUCUGCUGAUUUGGAAUUCUCGGGUGCCAA | 0.273
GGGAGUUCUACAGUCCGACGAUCGUUACUUGUUCAUUCAAAUCUUGCACCCCCCCCCCCAAGGUUCUCAUUGUUGGAGAGGGUGGGGGAAAGGUUCAAACAUUGUCAAUUUUUCUGACUUUUUAAAUCAUCAUUGGAAUUCUCGGGUGCCAA | 0.675
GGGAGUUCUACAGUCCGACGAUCGAGACCCUGGGAGACCAAGGCAUUCCCUGAAUAUCGUCCCCUUGCCUUCCCUACCGGCCAUUUCCUUUAGCUCCCUCAAGGCUCUUGGGGAGUUUGCUUGGGGCUCUAAGUGGAAUUCUCGGGUGCCAA | 0.467
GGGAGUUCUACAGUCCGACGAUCCCAUGAGCAAUUGUUUGCUCUUGAAAACCUCACUGCAAGGCUGAGGCUGAGCUUCUGAUUCACCACCCCAGGGCCUCCUUAUAGUUCUCUGCACACAAUAGGUGCUUCUUUGGAAUUCUCGGGUGCCAA | 0.311
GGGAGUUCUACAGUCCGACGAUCUGCAUAUAUUGUAAAAUAGGAUCAGAUGUAUAUUUUAAACUAAUUUCAAUGGAUUUUCCUCUUGAAAUGCUUUGUCUACUCAGUUAUAAAAUAUUCAGAUACAAGUUUUAUGGAAUUCUCGGGUGCCAA | 0.546

Block 4
Target: Protein max, full length (MAX, Homo sapiens, UniProt P61244-2, residues 1-151)
Method: protein-binding microarray
Molecule type: double-stranded DNA, one strand shown
Sample: in vitro
Tested at: not given
Setting: k-mer, scored over probes, only values ≥0.25
Direction: higher = stronger binding
Oligonucleotide | E-score
ACATATGG | 0.329
ACCCGTGG | 0.27
CCCACGAG | 0.415
ATTCCATG | 0.293
ACATCACG | 0.271
TGCGTACA | 0.288
AACACGCT | 0.413
GCGATCAC | 0.272
AATGTGCC | 0.251
ATGTGGTA | 0.315
ACAGCATG | 0.45
CCTCCCAC | 0.268
CGTGTCCA | 0.33
AGCATGGG | 0.407
CGCTCACA | 0.25
CACCTGAC | 0.36
CGTGGTAA | 0.39
CATGCACC | 0.377
CACGCTCG | 0.401

Block 5
Cell line: yeast with cyclin D2-Cln2 chimera
Read-out: cell growth
Mode: binder
Method: competitive growth deep sequencing
Molecule type: peptide
Tested at: concentration not given
Setting: peptide tiling library
Direction: direction not given
Sequence | growth enrichment score
KRNLLNEFDRII | -0.367
RQVRRDLFAF | -0.893
VKTKKRLNFDDK | 0.475
KRRLDLETDHQY | -0.505
SPPRGRRLFPPGPAGF | -0.894
KVKRRLDLDIDGLQKE | 0.952
DSGFCLDSPGPLDSKE | -0.554
GFGFLLFICKLTF | -0.662
RVSGLLSWTLSRVLWL | -0.763
NEGVSNAVRRSLYIRD | -0.272
NSMKELNFSHLPSNSV | 0.503
KSKHEEEEWTDDDLVE | -0.456
